Results gathered from unrelated publications.
Lines come from different studies, so protocols differ. ± marks the error that the study gave.

| Structure (SMILES) | tested on | assay | system | conditions | how to read | quantity | result |
| --- | --- | --- | --- | --- | --- | --- | --- |
| CCNCCCn1c2c(c3cc(OC)c(OC)cc3c1=O)C(=O)c1cc3c(nc1-2)OCO3 |  |  | male CD1 mouse, plasma | oral, 10 mg/kg |  | dose-normalized AUC(0-t) | 20.2 ng·h/mL |
| O=C(O)C[C@H](O)C[C@H](O)/C=C/c1c(C2CC2)nc2ccccc2c1-c1ccc(F)cc1 |  |  | OATP1B1/1B3 humanized mouse, plasma | oral, 5 mg/kg, geometric mean |  | AUC(0-12h) | 0.614 µM·h |
| CC(C)[C@H](NC(=O)[C@H](Cc1ccccc1)NC(=O)[C@H](CCCCN)NC(=O)[C@H](CCCCN)NC(=O)[C@H](C)NC(=O)[C@H](CO)NC(=O)[C@H](CCCCN)NC(=O)[C@]1(C)CCCC=CCCC[C@](C)(NC(=O)CN)C(=O)N[C@@H](CCCCN)C(=O)N[C@@H](CCCCN)C(=O)N[C@@H](Cc2ccccc2)C(=O)N1)C(=O)N[C@@H](CCCCN)C(=O)N[C@@H](C)C(=O)N[C@@H](Cc1ccccc1)C(=O)N[C@@H](CCCCN)C(N)=O |  | UPLC | TFA water/acetonitrile gradient |  | longer = more hydrophobic | retention time | 2.12 min |
| CC(C)C[C@H](NC(=O)[C@@H](Cc1c[nH]c2ccccc12)NC(=O)[C@H](Cc1ccc(O)cc1)NC(=O)[C@H](CO)NC(=O)[C@H](Cc1c[nH]c2ccccc12)NC(=O)[C@H](Cc1c[nH]cn1)NC(=O)[C@@H]1CCC(=O)N1)C(=O)N[C@@H](CCCNC(=N)N)C(=O)N1CCC[C@H]1C(=O)NCC(N)=O |  |  | Chinese CPP children, girls | intramuscular, 22.5 mg, 12 months, day 1, month 6 |  | patients, drug-related nocturnal emission | 0% |
| CO[C@H]1C[C@@H]2CC[C@@H](C)[C@@](O)(O2)C(=O)C(=O)N2CCCC[C@H]2C(=O)O[C@H]([C@H](C)C[C@@H]2CC[C@@H](O)[C@H](OC)C2)CC(=O)[C@H](C)/C=C(\C)[C@@H](O)[C@@H](OC)C(=O)[C@H](C)C[C@H](C)/C=C/C=C/C=C/1C |  |  | healthy adult horses | oral, 0.06 mg/kg, 4 h |  | heart rate | 33.5 ± 2.8 beats/min |
| COc1nnc2ccc(N3CCC(c4ccc(OCCN5CCN(C)C(=O)[C@H]5C)cc4)CC3)nn12 |  |  | human, plasma | oral, 2 mg once daily, multiple dose, monotherapy |  | terminal half-life | 8.75 h |
| C=CCN1CC(=O)N2[C@@H](Cc3ccc(O)cc3F)C(=O)N(Cc3cccc(N4CC(N5CCN(CC)CC5)C4)n3)C[C@@H]2N1C(=O)NCc1ccccc1 |  |  | advanced solid tumour patients | oral, 45 mg twice daily, grade ≥3, dose-escalation |  | treatment-related AST increased | 0% |
| CC1(C)CC[C@]2(NC(=O)C(C)(F)F)CC[C@]3(C)[C@H](C(=O)C=C4[C@@]5(C)C=C(C#N)C(=O)C(C)(C)[C@@H]5CC[C@]43C)[C@@H]2C1 |  |  | human, plasma | oral, 150 mg once daily, day 17 predose, geometric mean |  | trough concentration | 36.5 ng/mL |
| C=CC(=O)N(C)CCOc1c(N)ncnc1-c1cc(F)cc(NC(=O)c2ccc(C3CC3)cc2F)c1C |  |  | human, whole blood | oral, 10 mg once daily, day 1 |  | Cmax | 8.4 ng/mL |
| CN(CCCNC(=O)c1cccc(C(=O)O)c1)CCCNC(=O)c1cc(NC(=O)c2cc(NC(=O)c3cc(NC(=O)c4cc(NC(=O)C[C@H](CNC(=O)c5cc(NC(=O)c6cc(NC(=O)c7nc(NC(=O)c8nccn8C)cn7C)cn6C)cn5C)NC(=O)c5ccccc5)cn4C)cn3C)cn2C)cn1C |  | dynamic light scattering | 0.1% DMSO in PBS | 25 °C |  | critical aggregation concentration | 1 µM |
| Cc1ccc(C(=O)N(CCCN)C(c2nc3snc(C)c3c(=O)n2Cc2ccccc2)C(C)C)cc1 (centres unmarked) |  | hypophosphataemia grade ≥3 (CTCAE) | human patients | intravenous, 18 mg/day |  | patients with adverse event | 0% |
| CN(C(=O)n1cnc(-c2cccnc2)c1)[C@H]1CC[C@H](O)CC1 |  |  | Wistar rat, midbrain | oral, 10 mg/kg/day of BIA 10-2474, 24 h, repeated 5 days |  | concentration | 19.9 ± 1.6 ng/g |
| CC(C)(C(=O)N1CCOc2c(C#N)cncc2C1)C(F)F |  | measured: back pain | human | oral, 40 mg, CSF pharmacokinetic cohort |  | subjects with adverse event | 33.3% |
| CN(CC#N)C(=O)C[C@H](Nc1nc2ccccc2[nH]1)c1cccc(C(F)(F)F)c1 |  |  | human | intravenous infusion, 6 mg/kg, 1 mg/mL formulation |  | apparent volume of distribution | 97.4 ± 21.6 L |
| C[C@H]1CN(C(=O)CC#N)[C@]12CCN(c1ncnc3[nH]ccc13)C2 |  |  | healthy adult humans | oral, 12 mg single dose |  | participants with TEAEs | 0% |
| CCCCCN1C[C@H](O)[C@@H](O)[C@H](O)[C@@H]1CO |  | LC-MS/MS | Hexb-/- mice, total, brain | 300 mg/kg/day |  | mean brain concentration | 282 ng/g |
| COc1ccc2c(=O)n(C)c(-c3ccccc3)nc2c1 |  |  | male Sprague-Dawley rat, bladder | oral, 30 mg/kg, 0.25 h | reference: bladder over plasma | tissue/plasma ratio | 4.12 |
| C[C@@]1(c2cc(NC(=O)c3ccc(C#N)cn3)ccc2F)C=CSC(N)=N1 |  |  | elderly humans, both sexes, plasma | oral, 30 mg single dose |  | dose-normalised Cmax | 4.93 ng/mL |
| O=C(Nc1nc2cccc(-c3ccc(CN4CCS(=O)(=O)CC4)cc3)n2n1)C1CC1 |  | measured: non-cardiac chest pain | human rheumatoid arthritis patients | oral, 300 mg once daily, 4 weeks, regardless of relatedness |  | treatment-emergent adverse events | 0% |
| Cc1cc([C@H]2C[C@H]3[C@@H](CF)SC(N)=N[C@@]3(c3ccc(F)cc3F)CO2)on1 |  |  | male 129/SVE wild-type mouse, brain | subcutaneous, 30 mg/kg, 14 h |  | brain concentration | 0.015 µM |
| NCCONC(=O)[C@@H]1CC[C@@H]2CN1C(=O)N2OS(=O)(=O)O |  |  | healthy Chinese male subjects | intravenous, 1 g |  | number of Severe TRAE events | 0 |

| Structure (SMILES) | tested on | assay | system | conditions | how to read | quantity | result |
| --- | --- | --- | --- | --- | --- | --- | --- |
| COc1ncc(-c2nc3c(n2C(C)C)[C@H](c2ccc(Cl)cc2)N(c2cc(Cl)cn(C)c2=O)C3=O)c(OC)n1 |  |  | human patients, plasma | oral, 250 mg, high-dose arm, cycle 1 day 1 |  | median half-life | 15.5 h |
| O=C1CCc2ccc(OCCCCN3CCN(c4cccc(Cl)c4Cl)CC3)cc2N1 |  | measured: Constipation | patients, CYP2D6 intermediate metabolizers | dose not given, long-acting oral or depot |  | adverse event incidence | 10% |
| Cc1nn(CC(F)(F)F)cc1Nc1ncc(C2CC2)c(NCCc2c[nH]cn2)n1 |  | PAMPA | PBS | 5 h, pH 7.4 |  | effective permeability | 0.389 ×10⁻⁶ cm/s |
| COc1cc2c(c(O)c1OC)C(=O)c1c(cc(C)c(O)c1OC)C2=O | HK-2 co-cultured with HepaRG | MTT |  | 266.67 µM, 48 h | reference: untreated control | cell viability | 30.4 ± 2.43% |
| CNCc1ccc(-c2[nH]c3cc(F)cc4c3c2CCNC4=O)cc1 |  |  | human patients | oral, 600 mg twice daily, grade 5 |  | neutropenia incidence | 0% |
| O=C(c1cccnc1-c1ccncc1)N1CCC(O)(Cc2ccccc2)CC1 |  |  | healthy Japanese adults, plasma | oral, 600 mg single dose |  | Vz/F | 2340 L |
| CCN1CCN(Cc2ccc(Nc3ncc(F)c(-c4cc(F)c5nc6n(c5c4)[C@H](C)CCC6)n3)nc2)CC1 |  |  | human, plasma | 400 mg single dose, mean |  | CL/F | 33.7 L/h |
| O=C(N[C@H](Cc1c[nH]c2ccccc12)C(=O)Nc1ccncc1)c1ccc(-c2ccc(F)c(Cl)c2)cc1F |  |  | Swiss Webster mouse, female, intestine | oral, 50 mg/kg, 8 h, 20% HPβCD vehicle |  | concentration | 11.9 µM |
| CCC(=O)N(CCC(c1ccc2c(c1)OCO2)c1ccccc1OC)Cc1ccccc1 (centres unmarked) |  |  | female athymic nude mouse, blood | i.p., 60 mg/kg twice daily, 14 days, group mean |  | TP | 4.25 g/dL |
| CCCCCNC(=O)N1CCC(CN(Cc2ccc(Cl)cc2)Cc2ccc([N+](=O)[O-])s2)C1 (centres unmarked) |  |  | C57BL/6 mice | 100 mg/kg twice daily, 7 days |  | mean corpuscular haemoglobin concentration | 30.5 ± 1.3 g/dL |
| CCCC1CCC(c2ccc(OCC)c(F)c2F)CC1 (centres unmarked) |  |  | rat, fetus | 5000 ng/mL in perfusate, high dose, mixture of 21 LCMs |  | fetal accumulation | 1.35 ± 0.85 ng/g |
| Cn1cc(Nc2nccc(-c3ccc4c(c3)CN(C3COC3)CC[C@H]4NC(=O)c3cn(C(C)(C)C)nn3)n2)cn1 |  |  | human, whole blood | 150 mg twice daily, day 7 | reference: pre-dose baseline | lymphocyte count change | 2.12% |
| CC[C@H](C)[C@H](NC(C)=O)C(=O)N[C@H]1CSSC[C@@H](C(=O)N[C@H](C(N)=O)[C@@H](C)O)NC(=O)[C@H](CCCNC(=N)N)NC(=O)[C@H](Cc2c[nH]cn2)NC(=O)[C@H](C)NC(=O)CNC(=O)[C@H](Cc2c[nH]c3ccccc23)NC(=O)[C@H](CC(=O)O)NC(=O)[C@H](CCC(N)=O)NC(=O)[C@H](Cc2c[nH]c3ccccc23)NC(=O)[C@H](C(C)C)NC1=O |  | RP-HPLC, C18 | 28% acetonitrile isocratic | pH 7.4 |  | retention factor | 2.668 ± 0.007 |
| COc1c(O)c(C)cc2c1C(=O)c1c(O)cccc1C2=O | HK-2 co-cultured with HepaRG | MTT |  | 133.33 µM, 48 h | reference: untreated control | viability | 63.7 ± 8.09% |
| O=C(O)CCC(=O)O.[2H]C([2H])([2H])Oc1cc(C)c2[nH]ccc2c1CN1CC[C@@H](C2CC2)C[C@H]1c1ccc(C(=O)O)cc1 |  | multiple ascending dose | healthy Chinese subjects | 125 mg twice daily |  | subjects with hyperuricaemia | 0% |
| Cc1ccc([C@@H]2O[C@H](CO)[C@@H](O)[C@H](O)[C@H]2O)cc1Cc1ccc(-c2ccc(F)cc2)s1 |  |  | Japanese type 2 diabetes patients | 400 mg, day 6, 24 h urine collection | reference: baseline | urinary potassium excretion change | -4.63 mEq |
| O=C1NCCc2nc(OCc3cccc(F)c3)ccc21 |  | measured: loss of Placing | Sprague-Dawley rat male | oral, 100 mg/kg, 0 min | reference: baseline, direction not given | Irwin test score | 0 |
| CCc1cc(C(=O)NC)c2nccc(N3CCc4c(cc(Cn5ccnc5)cc4-c4cn(C)nc4C(F)(F)F)C3=O)c2c1 |  |  | Sprague Dawley rats | oral, 100 mg/kg twice daily, 7 days | reference: vehicle | serum MCV change | -1.44% |
| CC(C)C(=O)O[C@H]1[C@H](C)OC(=O)[C@@H]1Cc1ccccc1 |  |  | cabbage | concentration not given, foliar application |  | share of total radioactive residue | ≤ 13 % TRR |
| CCO[C@H]1CCN(Cc2c(OC)cc(C)c3[nH]ccc23)[C@H](c2ccc(C(=O)O)cc2)C1 |  |  | PNH patients, active haemolysis | oral, 100 mg, 8 weeks, treatment |  | incidence of oropharyngeal pain | 0% |

For quick reference, copied from above:
| Structure (SMILES) | tested on | assay | system | conditions | how to read | quantity | result |
| --- | --- | --- | --- | --- | --- | --- | --- |
| Cc1ccc([C@@H]2O[C@H](CO)[C@@H](O)[C@H](O)[C@H]2O)cc1Cc1ccc(-c2ccc(F)cc2)s1 |  |  | Japanese type 2 diabetes patients | 400 mg, day 6, 24 h urine collection | reference: baseline | urinary potassium excretion change | -4.63 mEq |
| O=C1NCCc2nc(OCc3cccc(F)c3)ccc21 |  | measured: loss of Placing | Sprague-Dawley rat male | oral, 100 mg/kg, 0 min | reference: baseline, direction not given | Irwin test score | 0 |
| CCc1cc(C(=O)NC)c2nccc(N3CCc4c(cc(Cn5ccnc5)cc4-c4cn(C)nc4C(F)(F)F)C3=O)c2c1 |  |  | Sprague Dawley rats | oral, 100 mg/kg twice daily, 7 days | reference: vehicle | serum MCV change | -1.44% |
| CC(C)C(=O)O[C@H]1[C@H](C)OC(=O)[C@@H]1Cc1ccccc1 |  |  | cabbage | concentration not given, foliar application |  | share of total radioactive residue | ≤ 13 % TRR |
| CCO[C@H]1CCN(Cc2c(OC)cc(C)c3[nH]ccc23)[C@H](c2ccc(C(=O)O)cc2)C1 |  |  | PNH patients, active haemolysis | oral, 100 mg, 8 weeks, treatment |  | incidence of oropharyngeal pain | 0% |
